Experimental data collected from several papers.
Each numbered part is a random draw from the data of one study; scales do not carry over between parts. Substitutions count along the parent as printed.
Chain of UniProt P41143 (whole entry, looked up): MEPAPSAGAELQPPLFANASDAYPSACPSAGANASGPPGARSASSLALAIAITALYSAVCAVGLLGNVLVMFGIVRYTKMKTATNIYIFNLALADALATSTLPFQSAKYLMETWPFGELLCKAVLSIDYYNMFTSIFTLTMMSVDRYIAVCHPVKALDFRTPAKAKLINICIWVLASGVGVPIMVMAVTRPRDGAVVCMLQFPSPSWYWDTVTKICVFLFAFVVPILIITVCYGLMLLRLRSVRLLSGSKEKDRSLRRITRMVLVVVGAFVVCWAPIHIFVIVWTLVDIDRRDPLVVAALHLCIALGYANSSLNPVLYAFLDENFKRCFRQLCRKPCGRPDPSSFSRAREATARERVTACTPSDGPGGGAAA

Block 1
Target: CCND3, cyclin fold, Cln2 fusion (human)
Technique: yeast growth competition, sequencing
Matrix: yeast
Setting: weak parent motif
Reference: not given
Direction: higher = stronger binding
Starting sequence: viral docking peptide; YKVKRRLVFGADD; partner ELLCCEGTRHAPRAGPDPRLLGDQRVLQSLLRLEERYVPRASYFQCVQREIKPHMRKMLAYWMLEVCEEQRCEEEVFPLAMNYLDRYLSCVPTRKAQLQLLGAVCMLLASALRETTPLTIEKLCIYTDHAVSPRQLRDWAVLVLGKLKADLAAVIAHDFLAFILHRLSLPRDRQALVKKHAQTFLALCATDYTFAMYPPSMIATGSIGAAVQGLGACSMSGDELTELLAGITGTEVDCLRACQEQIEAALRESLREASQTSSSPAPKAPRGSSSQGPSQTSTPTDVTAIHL
Change | normalised enrichment score
K2D | 0.166
D12F | 0.6
K4V | -0.556
R6T | -0.11
K4G | 0.249
R5A L7A | 0.0858
R5P | -0.115
R6K | 0.00892

Block 2
Target: HLA class I histocompatibility antigen, A alpha chain, allele A*25:01 (Homo sapiens, UniProt P04439)
Read-out: peptide-MHC binding
Molecule type: peptide
Tested at: concentration not given
Molecule | binding
LPLESCFGV | inactive
DEYGPVFVE | inactive
MHYKLDEVL | inactive
VLYHRYNLV | inactive
TGIVSSMHY | inactive
KRLQILGYL | inactive
TEAEKWPFF | inactive
TLKDGDFIL | inactive

Block 3
Target: UBE2A UBC core domain (UniProt P49459)
Chain of UniProt P49459 (whole entry, looked up): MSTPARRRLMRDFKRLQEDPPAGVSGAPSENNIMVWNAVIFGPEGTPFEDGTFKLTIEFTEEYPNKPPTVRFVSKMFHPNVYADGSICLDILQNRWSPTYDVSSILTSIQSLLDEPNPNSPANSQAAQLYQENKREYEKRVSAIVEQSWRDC
Technique: yeast two-hybrid
Matrix: yeast
Setting: mostly zero background
Reference: not given
Direction: higher = stronger interaction
B1: ZNRF4 RING domain (UniProt Q8WWF5); chain VRTFTWHNDLCAICLDEYEEGDQLKILPCSHTYHCKCIDPWFSQAPRRSCPVCKQSVAATEDSF
B2: MID2 RING domain (UniProt Q9UJV3); chain KMETLESELTCPICLELFEDPLLLPCAHSLCFSCAHRILVSSCSSGESIEPITAFQCPTCRYVISLNHRGL
B3: RNF103 RING domain (UniProt O00237); chain WPADMLHCTECVVCLENFENGCLLMGLPCGHVFHQNCIVMWLAGGRHCCPVCRWPSYKKKQPY
B4: RNF182 RING domain (UniProt Q8N6D2); chain AESQASDELECKICYNRYNLKQRKPKVLECCHRVCAKCLYKIIDFGDSPQGVIVCPFCRFETCLPDDEV
B5: NFX1 RING domain (UniProt Q12986); chain IEQLTTEKYECMVCCELVRVTAPVWSCQSCYHVFHLNCIKKWARSPASQADGQSGWRCPACQNVSAHVPNTY
Molecule | lacZ reporter activity
B1 (ZNRF4 RING domain) | 0
LEALSSDFLACKICLEQLRAPKTLPCLHTYCQDCLAQLADGGRVRCPECRETVPVPPEGV (TRIM56 RING domain (UniProt Q9BRZ2)) | 0
B2 (MID2 RING domain) | 0
B3 (RNF103 RING domain) | 0
DDVLTKDAGECVICLEELLQGDTIARLPCLCIYHKSCIDSWFEVNRSCPEHPAD (ZNRF1 RING domain (UniProt Q8ND25)) | 0
B4 (RNF182 RING domain) | 0
B5 (NFX1 RING domain) | 0
FAEQPSVKLCCQLCCSVFKDPVITTCGHTFCRRCALKSEKCPVDNVKLTVVVNNI (TRAF7 RING domain (UniProt Q6Q0C0)) | 0

Further values, each from its own experiment
SMILES | target | read-out | technique | tested at | endpoint | result
Cc1nc(N2CC[C@@H](O)C2)ncc1-c1cc(C(F)(F)F)cc2[nH]ncc12 | Delta-type opioid receptor (OPRD1, Homo sapiens, UniProt P41143) | binding | radioligand binding | 10 µM | inhibition | -11.4%
